{"data": "Experimental data from different studies", "note": "A part holds a random share of what one study measured. Positions count from the first letter of the parent shown."}
{"data": "Series 1", "target": "Centromere-binding protein 1, full length, His-tagged (CBF1, Saccharomyces cerevisiae, UniProt P17106, residues 1-351)", "technique": "competition protein-binding microarray", "form": "double-stranded DNA, one strand shown", "matrix": "in vitro", "tested at": "2 µM", "setting": "whole 60-bp probe, lowest competitor level", "together with": "Pho4 competitor, 0.05 µM", "direction": "higher = stronger binding", "all sequences stand within": "… GTCTTGATTCGCTTGACGCTGCTG", "UniProt P17106, sequence (whole entry, looked up)": "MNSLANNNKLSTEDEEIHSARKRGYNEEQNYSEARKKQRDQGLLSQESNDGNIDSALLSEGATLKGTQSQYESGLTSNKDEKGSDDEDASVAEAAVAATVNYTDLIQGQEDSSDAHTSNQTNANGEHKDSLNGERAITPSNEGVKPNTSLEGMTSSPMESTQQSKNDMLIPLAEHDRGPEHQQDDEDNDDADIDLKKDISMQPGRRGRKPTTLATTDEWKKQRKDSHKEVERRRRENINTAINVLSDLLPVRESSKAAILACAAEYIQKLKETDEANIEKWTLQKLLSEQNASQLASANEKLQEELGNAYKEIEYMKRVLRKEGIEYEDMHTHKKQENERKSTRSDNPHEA"}
{"Sequence": "AAAGCGGTAATTTTTCACGTGTGTTCACATATCTAT", "fluorescence intensity": "791 a.u."}
{"Sequence": "TTTTAAGCCGCAATACGCGTGCGGACTTTTCACTGG", "fluorescence intensity": "69.1 a.u."}
{"Sequence": "GTCTTGTCTCATTGCCACGTGTTTTTCCCCACTTCA", "fluorescence intensity": "1130 a.u."}
{"Sequence": "CGGGGTTAAGTTTGCGGCGTGGGTGGCTTGCAGCAG", "fluorescence intensity": "65.1 a.u."}
{"Sequence": "TTCTGTAGGTTATACCATGTGCTAAATGTAGTGGTC", "fluorescence intensity": "181 a.u."}
{"Sequence": "CTTCTGTAAATTTGCCGTGTGGGTGGACGCGCCCCG", "fluorescence intensity": "67.4 a.u."}
{"Sequence": "CGACAAATAGTAGCTCGCGTGGCCGAATGGCAACGC", "fluorescence intensity": "70.6 a.u."}
{"Sequence": "AAGTGGATTTGCCAGCCCGTGTCTGTTTAGAGATGT", "fluorescence intensity": "75.1 a.u."}
{"Sequence": "CTTTCCCGATCTTGACCTGTGGGTGTAGCACATTTG", "fluorescence intensity": "70.8 a.u."}
{"Sequence": "TGTTAGTCAATTGCTCGCGTGGGACGACATTCTCTT", "fluorescence intensity": "68.5 a.u."}
{"Sequence": "AAAGCGGTAATTTGCAAAGTGGGTGCAGATATCTAT", "fluorescence intensity": "74.6 a.u."}
{"Sequence": "GATGCCCTGCACCTTCGCGTGAGGAAAAGCAAAAAG", "fluorescence intensity": "63.1 a.u."}
{"Sequence": "TCATTCAGCATTCTCTGCATGACAGCTCTGGCTTCA", "fluorescence intensity": "66.3 a.u."}
{"Sequence": "TCTCTTTATTAATTACACGTGGTGATGACTCATTGG", "fluorescence intensity": "1270 a.u."}
{"Sequence": "AAATTACTAAGTTGGCGGGTGGGTGACGCCGTATGA", "fluorescence intensity": "69.1 a.u."}
{"Sequence": "CTCTTATCGGTATTACTTTCTTATCAATGAAAAATT", "fluorescence intensity": "92.4 a.u."}
{"Sequence": "GTTTCGACTTGCCACAACGTGCTTTCGGTTTCTTGT", "fluorescence intensity": "98.9 a.u."}
{"Sequence": "CGTCCTAGTGATTGGAGAGTGGGTGCCATGAGGAAG", "fluorescence intensity": "74.9 a.u."}
{"Sequence": "CTTTCCCGATCTTGGTAGGTGGGTGTAGCACATTTG", "fluorescence intensity": "80.5 a.u."}
{"Sequence": "CTAACGAAGGTTTCTCACGTGTTTTACAAGCCAAGT", "fluorescence intensity": "1520 a.u."}
{"data": "Series 2", "target": "Prothrombin, mature alpha-thrombin (F2, Homo sapiens, UniProt P00734)", "technique": "aptamer microarray, sandwich", "form": "DNA with 2'F-ANA", "matrix": "in vitro", "tested at": "200 nM", "setting": "whole 15-mer aptamer, many near background", "together with": "Cy3 exosite-II aptamer, 400 nM", "direction": "higher = stronger binding", "sequence": "GGTTGGTGTGGTTGG"}
{"Modification": "2'F-ANA at 1 2 4 10 11 12 14 15", "mean fluorescence intensity [a.u.]": 58.9}
{"Modification": "2'F-ANA at 1 3 12", "mean fluorescence intensity [a.u.]": 719}
{"Modification": "2'F-ANA at 2 4 6 7 8 13", "mean fluorescence intensity [a.u.]": 240}
{"Modification": "2'F-ANA at 2 4 8 9 11 12 14 15", "mean fluorescence intensity [a.u.]": 120}
{"Modification": "2'F-ANA at 3 6 7 8 9 11 13 15", "mean fluorescence intensity [a.u.]": 814}
{"Modification": "2'F-ANA at 1 2 3 4 6 7 10 11 15", "mean fluorescence intensity [a.u.]": 70.8}
{"Modification": "2'F-ANA at 1 4 5 6 8 10 11 12 13 14", "mean fluorescence intensity [a.u.]": 50}
{"Modification": "2'F-ANA at 1 2 6 7 9 10 11 14 15", "mean fluorescence intensity [a.u.]": 51.5}
{"Modification": "2'F-ANA at 1 3 4 5 7 11", "mean fluorescence intensity [a.u.]": 51.1}
{"Modification": "2'F-ANA at 1 2 3 5 9 10", "mean fluorescence intensity [a.u.]": 52.1}
{"Modification": "2'F-ANA at 1 2 3 5 8 12 14", "mean fluorescence intensity [a.u.]": 52.4}
{"Modification": "2'F-ANA at 3 4 9 11 12 14", "mean fluorescence intensity [a.u.]": 366}
{"Modification": "2'F-ANA at 5 7 8 10 12 13 14", "mean fluorescence intensity [a.u.]": 43.8}
{"Modification": "2'F-ANA at 2 3 4 5 6 7 10 11 12 13", "mean fluorescence intensity [a.u.]": 59.5}
{"Modification": "2'F-ANA at 3 4 10 14", "mean fluorescence intensity [a.u.]": 248}
{"Modification": "2'F-ANA at 2 5 10 11 13", "mean fluorescence intensity [a.u.]": 49.3}
{"Modification": "2'F-ANA at 2 4 7 10 12 15", "mean fluorescence intensity [a.u.]": 139}
{"Modification": "2'F-ANA at 1 3 9 10 11 12 13 14", "mean fluorescence intensity [a.u.]": 62.8}
{"Modification": "2'F-ANA at 1 5 8", "mean fluorescence intensity [a.u.]": 66.3}
{"Modification": "2'F-ANA at 1 4 6 8 9 12 13 14 15", "mean fluorescence intensity [a.u.]": 57.2}
{"Modification": "2'F-ANA at 1 2 3 4 5 6 8 9 10 11 12 13 14 15", "mean fluorescence intensity [a.u.]": 51.1}
{"Modification": "2'F-ANA at 3 4 9 10 12 14 15", "mean fluorescence intensity [a.u.]": 219}
{"Modification": "2'F-ANA at 1 2 3 5 6 7 8 10 14", "mean fluorescence intensity [a.u.]": 49.1}
{"Modification": "2'F-ANA at 2 3 4 5 9 11", "mean fluorescence intensity [a.u.]": 74.6}
{"data": "Series 3", "target": "Interferon regulatory factor 5, full length, phosphomimetic (IRF5, Homo sapiens, UniProt Q13568-2, residues 1-514, K96S/S451D/S453D/S456D/S462D)", "technique": "protein-binding microarray", "form": "double-stranded DNA, one strand shown", "matrix": "in vitro", "tested at": "250 nM", "setting": "60-bp whole probe", "together with": "salmon DNA 0.4 mg/ml", "baseline": "random background probes", "direction": "higher = stronger binding", "all sequences stand within": "GCCTAGCAC … GTCTTGATTCGCTTGACGCTGCTG"}
{"Sequence": "GACGGTTTCAACTTTCGGGACGTGCTA", "log fluorescence": "5.75 z-score"}
{"Sequence": "TTTTTTGTATTTTTGATAGAGTGCTAG", "log fluorescence": "1.71 z-score"}
{"Sequence": "GACCATTTCAGTCTCGAGACGTGCTAG", "log fluorescence": "1.16 z-score"}
{"Sequence": "TTAGGTATCCTAATCCTTTAGTGCTAG", "log fluorescence": "-0.0415 z-score"}
{"Sequence": "TTAGGTATCGGCATCGGTTAGTGCTAG", "log fluorescence": "3.06 z-score"}
{"Sequence": "GACGGTATCCTTATCATGACGTGCTAG", "log fluorescence": "0.312 z-score"}
{"Sequence": "TTAGATTACAGTATCGATTAGTGCTAG", "log fluorescence": "6.3 z-score"}
{"Sequence": "TTAGATATCAGACTGTATTAGTGCTAG", "log fluorescence": "0.49 z-score"}
{"Sequence": "TCATATTTATAAATTATACTGTGCTAG", "log fluorescence": "0.813 z-score"}
{"Sequence": "TTTTTTTTTTTTTTGTATTTGTGCTAG", "log fluorescence": "1.58 z-score"}
{"Sequence": "TTGTTTTTTGGTTTCTGGTTGTGCTAG", "log fluorescence": "3.76 z-score"}
{"Sequence": "TCACAGCTCCCTTTCTCACTGTGCTAG", "log fluorescence": "0.135 z-score"}
{"Sequence": "TTAGGTTCCCTTTTCCTATAGTGCTAG", "log fluorescence": "0.702 z-score"}
{"Sequence": "GTATGGATGTGTTTTAAATAGTGCTAG", "log fluorescence": "0.233 z-score"}
{"Sequence": "GACGATTTCAGCCTCGAGACGTGCTAG", "log fluorescence": "0.649 z-score"}
{"Sequence": "TCATTTTTTTTTCTACTACTGTGCTAG", "log fluorescence": "1.66 z-score"}
{"Sequence": "TAAGGTTTCCAATCAGCCCCGTGCTAG", "log fluorescence": "0.0109 z-score"}
{"data": "Series 4", "target": "CCNB3, cyclin fold, Cln2 fusion (human)", "technique": "yeast growth competition, sequencing", "matrix": "yeast", "setting": "weak parent motif", "baseline": "not given", "direction": "higher = stronger binding", "parent": "CDC25A docking peptide (human); PPHRRRLLFACSP"}
{"Variant": "PPHRRRLLFACSH [P13H]", "normalised enrichment score": 0.329}
{"Variant": "PTHRRRLLFACSP [P2T]", "normalised enrichment score": 0.447}
{"Variant": "PPHRRRLLFYCSP [A10Y]", "normalised enrichment score": -0.395}
{"Variant": "PPHRRRLLFACRP [S12R]", "normalised enrichment score": 0.196}
{"Variant": "PPHRRRLLFACSR [P13R]", "normalised enrichment score": -0.0632}
{"Variant": "PPHRARLLFACSP [R5A]", "normalised enrichment score": 0.211}
{"Variant": "PPHRRRLLFCCSP [A10C]", "normalised enrichment score": -0.137}
{"Variant": "PPHRRRLLNACSP [F9N]", "normalised enrichment score": 0.289}
{"Variant": "PPHYRRLLFACSP [R4Y]", "normalised enrichment score": -0.0958}
{"Variant": "PPHRRRCLFACSP [L7C]", "normalised enrichment score": 0.246}
{"Variant": "PPHRRRLLFACKP [S12K]", "normalised enrichment score": -0.00652}
{"Variant": "PPHRRRLLLACSP [F9L]", "normalised enrichment score": 0.182}
{"Variant": "PPHSRRLLFACSP [R4S]", "normalised enrichment score": -0.119}
{"Variant": "PPHHRRLLFACSP [R4H]", "normalised enrichment score": -0.21}
{"Variant": "PPHRRRLLFMCSP [A10M]", "normalised enrichment score": 0.423}
{"Variant": "PPHRRRLLFACVP [S12V]", "normalised enrichment score": 0.423}
{"Variant": "PPHRRRLLTACSP [F9T]", "normalised enrichment score": 0.356}
{"Variant": "PPVRRRLLFACSP [H3V]", "normalised enrichment score": 1.16}
{"Variant": "PPHRRRLLWACSP [F9W]", "normalised enrichment score": 0.217}
{"Variant": "PPHRRRLLFAHSP [C11H]", "normalised enrichment score": 0.121}
{"Variant": "PPDRRRLLFACSP [H3D]", "normalised enrichment score": 0.568}
{"Variant": "PPHRRRNLFACSP [L7N]", "normalised enrichment score": -0.0239}
{"Variant": "PPHRRRLLYACSP [F9Y]", "normalised enrichment score": 0.211}
{"Variant": "PCHRRRLLFACSP [P2C]", "normalised enrichment score": 0.472}
{"Variant": "PKHRRRLLFACSP [P2K]", "normalised enrichment score": 0.132}
{"data": "Series 5", "target": "ABI1, truncated, D143A, DHFR fusion (Arabidopsis thaliana)", "technique": "DHFR PCA, deep sequencing", "matrix": "yeast", "setting": "methotrexate growth selection, single substitutions", "together with": "(+)-ABA 4.8 µM", "baseline": "wild-type fitted maximum", "direction": "higher = stronger binding", "parent": "PYL1, truncated, DHFR fusion (Arabidopsis thaliana); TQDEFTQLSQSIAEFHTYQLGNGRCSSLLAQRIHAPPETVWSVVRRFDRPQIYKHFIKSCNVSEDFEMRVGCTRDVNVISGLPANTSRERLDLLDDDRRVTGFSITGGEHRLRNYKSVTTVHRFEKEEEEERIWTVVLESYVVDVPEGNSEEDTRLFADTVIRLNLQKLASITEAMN"}
{"Variant": "E174V", "relative binding score [%]": 24.5}
{"Variant": "L164I", "relative binding score [%]": 60}
{"Variant": "R123F", "relative binding score [%]": 21.2}
{"Variant": "N177I", "relative binding score [%]": 70.5}
{"Variant": "R45A", "relative binding score [%]": -1.13}
{"Variant": "R45F", "relative binding score [%]": -1.14}
{"Variant": "I162M", "relative binding score [%]": -7.65}
{"Variant": "L93C", "relative binding score [%]": 60.9}
{"Variant": "R98N", "relative binding score [%]": 64.3}
{"Variant": "E174P", "relative binding score [%]": -2.52}
{"Variant": "H110N", "relative binding score [%]": 71.5}
{"Variant": "R111Q", "relative binding score [%]": 3.53}
{"Variant": "E151R", "relative binding score [%]": 59.5}
{"note": "Some of these lines once more (series 4):"}
{"Variant": "PPHRRRLLFMCSP [A10M]", "normalised enrichment score": 0.423}
{"Variant": "PPHRRRLLFACVP [S12V]", "normalised enrichment score": 0.423}
{"Variant": "PPHRRRLLTACSP [F9T]", "normalised enrichment score": 0.356}
{"Variant": "PPVRRRLLFACSP [H3V]", "normalised enrichment score": 1.16}
{"Variant": "PPHRRRLLWACSP [F9W]", "normalised enrichment score": 0.217}
{"Variant": "PPHRRRLLFAHSP [C11H]", "normalised enrichment score": 0.121}
{"Variant": "PPDRRRLLFACSP [H3D]", "normalised enrichment score": 0.568}
{"Variant": "PPHRRRNLFACSP [L7N]", "normalised enrichment score": -0.0239}
{"Variant": "PPHRRRLLYACSP [F9Y]", "normalised enrichment score": 0.211}
{"Variant": "PCHRRRLLFACSP [P2C]", "normalised enrichment score": 0.472}
